Published values collected from several papers.
A part holds a random share of what one study measured.

Block 1
Target: Interferon regulatory factor 5, full length, phosphomimetic (IRF5, Homo sapiens, UniProt Q13568-2, residues 1-514, K96S/S451D/S453D/S456D/S462D)
Method: protein-binding microarray
Form: double-stranded DNA, one strand shown
Sample: in vitro
Tested at: 250 nM
Notes: 60-bp whole probe
Added: salmon DNA 0.4 mg/ml
Reference: random background probes
Direction: higher = stronger binding
Shared flanks, not repeated: GCCTAGCAC … GTCTTGATTCGCTTGACGCTGCTG
Strand | log fluorescence [z-score]
TTAGATATCGGGACTGGACTAGTGCTA | 1.01
TTAGGACTGGACACCGGGTTAGTGCTA | -0.603
GACAGTTTCGACTTTCGGGACGTGCTA | 9.84
ATAGGTTTCTATATTTGCTTGTGCTAG | 2.34
GACGGACTGGATACTGGGGACGTGCTA | -0.514
TTAGGGCTGGGTATCGGTTAGTGCTAG | 3.83
TAACATATTCTCTTCTTGCAGTGCTAG | 0.583
CTAATTTCCATTTTCTAAATGTGCTAG | 2.19
GATGGTATCCTTCTCCTGACGTGCTAG | 0.157
TGTGAAACCTTCAGGCACGTGTGCTAG | -0.0314
TTAGATATCGACTATCGGTTAGTGCTA | 7.63
TTAGGACTGCTAATGCTTTAGTGCTAG | -0.195
GACGGACTGGACCCTGGGGACGTGCTA | -0.813
GACGAACTGGGGTTCCGAGACGTGCTA | -0.484
GTGTGTCTGATTATTTACATGTGCTAG | 0.221
TTAGATATCGGGTCTCGATTAGTGCTA | 1.87
ATTTTTTTTAGTGGATGAAAGTGCTAG | 1.17
CCAAACCTGTGCGCCGTGCCGTGCTAG | -0.427
TTAGGTTACGGTTCCGGTTAGTGCTAG | 1.19
TTAGGTATCCATCTCCTTTAGTGCTAG | 0.183
GACGGTATCGGACAGGGGACGTGCTAG | 0.835
GACGGTTTCCTTCTGCTGACGTGCTAG | 0.853
GACGATCTCGGGTTTCGAGACGTGCTA | 1.44

Block 2
Organism: Saccharomyces cerevisiae
Effect on: growth after mating arrest
Method: competitive growth deep sequencing
Form: peptide
Notes: strain without Cln2 fusion
Direction: direction not given
Molecule | enrichment score
LKGRRLVFDN | 0.287
EPKTLFLGAGDFQF | 0.702
RVSGLLSWTLSRVLWL | -0.682
LAKRALKYTD | -0.0329
IQKKLRFEDTLEFVGF | -0.276
QDYERRLLRQIVIQNE | 0.595
RSLKLDGLLEEN | 0.103
CFRCLLFSFSGRSGVE | 0.077
VLLKRLQDVVSERANH | -0.209
TSSAQRRLEIPSGGAD | 0.257
SDSTVTKLDFDLEP | 0.235
ALLRRLQDVANDRGSH | 0.233

Block 3
Target: Ras GTPase-activating protein-binding protein 1, C-terminal RGG region (G3BP1, Homo sapiens, UniProt Q13283)
Chain of UniProt Q13283 (whole entry, looked up): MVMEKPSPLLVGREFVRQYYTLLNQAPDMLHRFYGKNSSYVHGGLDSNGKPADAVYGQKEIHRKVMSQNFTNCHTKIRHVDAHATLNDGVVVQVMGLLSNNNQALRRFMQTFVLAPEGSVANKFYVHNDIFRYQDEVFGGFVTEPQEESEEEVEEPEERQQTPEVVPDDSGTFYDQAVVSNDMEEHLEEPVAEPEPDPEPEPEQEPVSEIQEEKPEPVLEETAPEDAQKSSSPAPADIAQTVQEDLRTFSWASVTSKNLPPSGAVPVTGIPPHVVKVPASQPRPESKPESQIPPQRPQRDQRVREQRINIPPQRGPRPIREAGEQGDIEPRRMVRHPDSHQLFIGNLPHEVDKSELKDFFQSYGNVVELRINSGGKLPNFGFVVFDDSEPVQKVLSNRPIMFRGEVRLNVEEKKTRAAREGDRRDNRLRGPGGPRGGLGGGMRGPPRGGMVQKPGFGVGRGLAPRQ
Method: RNA Bind-n-Seq
Form: RNA
Sample: in vitro
Tested at: 1 µM
Notes: whole 134-nt RNA, ends assumed
Added: 150 mM KCl
Reference: input library
Direction: higher = stronger binding
Strand | log2 enrichment
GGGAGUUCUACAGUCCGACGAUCAGUCCUGUGCUACACAUCGUAUGUACCGAAUCAAACCCCCAAACCCAAACCCCCAAAAAAGUAUUAUGUUACGCCGUUCGGAUCUGCACUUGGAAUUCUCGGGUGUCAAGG | -1.31
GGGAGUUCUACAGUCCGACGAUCCUCAAGUCCUGUGCUACACAUCGUAUGUACCGAAUCGGGUGGGUUUGGGAGGGAAAGUAUUAUGUUACGCCGUUCGGAUCUGCACUUCCAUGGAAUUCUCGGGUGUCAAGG | 1.69
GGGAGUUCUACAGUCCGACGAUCUCCUGUGCUACACAUCGUAUGUACCGAAUCGGGGUUUUUUUGGGGAAAGGGGAAAGGGGAAAGUAUUAUGUUACGCCGUUCGGAUCUGCAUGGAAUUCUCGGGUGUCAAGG | 1.99
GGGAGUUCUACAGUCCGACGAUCAGUCCUGUGCUACACAUCGUAUGUACCGAAUCGGAAAAAGGAAAAAGGAAAAAAAGGAAAGUAUUAUGUUACGCCGUUCGGAUCUGCACUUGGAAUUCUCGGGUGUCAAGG | -2.06
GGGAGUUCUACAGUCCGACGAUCAAGUCCUGUGCUACACAUCGUAUGUACCGAAUCGGGGAAAAGGGAAAAGGGAAAAGGAAAGUAUUAUGUUACGCCGUUCGGAUCUGCACUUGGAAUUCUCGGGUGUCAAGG | -1.37
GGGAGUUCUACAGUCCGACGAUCUCCUGUGCUACACAUCGUAUGUACCGAAUCGGGGAAAAAGGGGAAAAAAAGGGGUGGGGAAAGUAUUAUGUUACGCCGUUCGGAUCUGCAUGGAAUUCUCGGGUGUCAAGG | 1.48
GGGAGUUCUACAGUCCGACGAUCCUGUGCUACACAUCGUAUGUACCGAAUCGGGGAAAAAGGGGUUUUUGGGGUUUUUUUGGGGAAAGUAUUAUGUUACGCCGUUCGGAUCUGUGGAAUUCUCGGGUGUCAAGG | 0.352
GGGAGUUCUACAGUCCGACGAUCUGGCCCUGGUUGCAUGCGGGGAGGAAGAGGUGGCCUCAUGGAUCGUGGUGGUCCCGGUGGAAUGUUCAGAGGUGGCCGUGGUGGAGACAGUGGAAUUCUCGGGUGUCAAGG | 2.32
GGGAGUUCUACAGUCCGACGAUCUGUAACCUGGGGAUUCUCUCAACUCUCUUGUCCCACACAGACUUCUAUGAGGAAAUCCAGGAGUUUGUGAAAGAUGUCUUUUCACCUAUAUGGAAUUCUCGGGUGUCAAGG | -0.266
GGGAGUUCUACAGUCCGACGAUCUCCUGUGCUACACAUCGUAUGUACCGAAUCGGAAAAAAGGGAAAAAAGGGGAAAAAAGGAAAGUAUUAUGUUACGCCGUUCGGAUCUGCAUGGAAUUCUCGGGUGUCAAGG | -1.63
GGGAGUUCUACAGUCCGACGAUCUCCUGUGCUACACAUCGUAUGUACCGAAUCGGGGUUUUUGGGGAAAAAGGGGAAAGGGGAAAGUAUUAUGUUACGCCGUUCGGAUCUGCAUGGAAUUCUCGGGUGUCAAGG | 2.73
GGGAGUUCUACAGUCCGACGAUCCACAGACAACACGCACCCACACAGACACAGAGGGAAGGGGUUGGGAUGGGGACAGGGUGCACAGCAGGGCGGGGUAGGACCCCAGUCCCUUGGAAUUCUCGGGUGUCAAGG | -1.07
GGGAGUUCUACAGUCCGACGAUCAGUCCUGUGCUACACAUCGUAUGUACCGAAUCGGAAAAAGGAAAAAGGGGAAAAAGGGAAAGUAUUAUGUUACGCCGUUCGGAUCUGCACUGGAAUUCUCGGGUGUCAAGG | -1.62
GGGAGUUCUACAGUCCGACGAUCGGAUUGGUAGCUUAUGUCGAUCUUGAUGAAAGAGCAAUUGAUGCUCUCAGGGAAUUUAAUGAAGAAGGAGCUCUGUCUGUACUACAGCAGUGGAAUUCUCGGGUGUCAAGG | -1.82

Block 4
Target: RNA binding protein fox-1 homolog 2, RRM domain, GST-SBP tag (RBFOX2, Homo sapiens, UniProt O43251-10, residues 100-194)
Method: RNA Bind-n-Seq
Form: RNA
Sample: in vitro
Tested at: 365 nM
Notes: natural RNA segment, single round, ends assumed
Reference: no-protein control
Direction: higher = stronger binding
Residues (chain): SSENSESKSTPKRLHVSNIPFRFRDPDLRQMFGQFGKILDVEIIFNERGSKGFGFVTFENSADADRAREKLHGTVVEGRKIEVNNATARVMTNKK
Strand | RBNS enrichment (R)
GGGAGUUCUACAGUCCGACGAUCCAGCGCCCUGGCAAAGGCUGACAACUGGCUGUCUUGGGGCCGAACAGCCCCUGCCCUGCCUCUGAGGGCCCACCAGCCUGUGCUGCAUACCCACCGCCCAGCUUCUCCCUUGGAAUUCUCGGGUGCCAA | 0.253
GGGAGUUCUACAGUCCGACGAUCACAUCAAGUUAGAAGUCUGAUUUUGAAUAAUAUCAUCAAUAAGAAGGAGUUUGGGAUUUUGGCAAAGACCAAAUACUUUCAAAUGUUGAAGAUGCAUGCGAUGAAUACCAUGGAAUUCUCGGGUGCCAA | 2.28
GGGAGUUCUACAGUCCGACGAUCCAUUACUCACCUGGCACAGACGGCCUAAAUGCAAUCCCCAGCACAAAAAGAGACUGCCUACAAAUUGUUCCUCUAGAUCAUCGGGGCAGAGGUGCUGUCUAUAAAGCCCCUGGAAUUCUCGGGUGCCAA | 0.321
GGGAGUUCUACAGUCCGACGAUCAAACUUAAAGUCUAUUCUACUUUGCAAGAGGAGAAAUGUGUUUUAUGAACGAUAGAUCACAUCAGAACUCCUGUGGGGAGGAAACCUUAUAAAUUAAACACAUGGCCCCCUGGAAUUCUCGGGUGCCAA | 0.286
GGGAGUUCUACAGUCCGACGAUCUAUUGUAUAUUUUUUUCUUAAUGUUUAAGGAAAUGUGCAGGAUACUACAUGCUUUUUGUAUCACACAGUAUAUGAUGGGGCAUGUGCCAUAGUGCAGGCUUGGGGAGCUUUGGAAUUCUCGGGUGCCAA | 1.17
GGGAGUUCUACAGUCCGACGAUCUUGGGGUUGAAAACUUAAAUGUGUAGUUCCAGUCCUUCUAUGCAGAGUCUCUCCUGCCCUCCCUCCUUCCUGCAGGCAAAUAUACAAGCUAGACCCUGUUCCCUCACCCUUGGAAUUCUCGGGUGCCAA | 0.367
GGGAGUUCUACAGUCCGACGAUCCACUGCGUCUGGGCCUGAGACGUGCAUGGAGGGCUGUAAAGCCACGGAUUCCCCUCGCUGGAGAGGCUCCUGUCUGAUAGCGGUAGAUGAAAAAUAAGGUCGUUAUGACUUGGAAUUCUCGGGUGCCAA | 2.25
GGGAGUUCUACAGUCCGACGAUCUUCCCUAUCCCUUCUCCUGAGCACCCUUUGAUUUCUGAGGACAGUACUACCCAUUCAUCUAUUGUAGAGUAACCCUUGUGACUCAAUAUUACCAUAGUGCGAUGUUGUUUUGGAAUUCUCGGGUGCCAA | 0.514
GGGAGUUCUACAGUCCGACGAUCGUGCUGAGAAAGUAUGCCCCACCUAUCUUUGGUAUAUGAUAGGUUACAUAAAAGGAAGGUAUUGGCUGAACUGAAUAGAGGUCUUGAUCUUUGGAAUGCAUGCCAGUAAUUGGAAUUCUCGGGUGCCAA | 6.76
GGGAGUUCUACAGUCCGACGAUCUCCAGAAGGAAAUCAUUUUAGUUAUGAACUAAAUAAUAAAAAUUAGAACUUCAAAUGCGAUGGUCUUGACUAUUAGACCAGAUUUAGUAGCUCCAUAUCUAAGAUUUUUCUGGAAUUCUCGGGUGCCAA | 0.526
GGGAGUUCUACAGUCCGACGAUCCUCUCCUUGUUUGCUAUGGGGGAGAUUGCUUCCCUCCCCAGAUCUUUGCUAUGUAGCUUAGAGUGACCUUAAACUUAUGAUCCCCCUGCCUCCACCUCCUCAAUGCCGUAUGGAAUUCUCGGGUGCCAA | 1.47
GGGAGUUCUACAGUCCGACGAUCCUCCCACACCCAAGAGGAGUGGUGGGUUUGAGUUUGGAGGUUUUACUCAAGUGACAGCUUCAGCAUUUCUUGGUAGCACCUACAGCAUUCUGAUUACAUGCAGGUUCCUGUGGAAUUCUCGGGUGCCAA | 0.385

Excerpt of the above (block 1):
Strand | log fluorescence [z-score]
TTAGGACTGCTAATGCTTTAGTGCTAG | -0.195
CCAAACCTGTGCGCCGTGCCGTGCTAG | -0.427
TGTGAAACCTTCAGGCACGTGTGCTAG | -0.0314
ATTTTTTTTAGTGGATGAAAGTGCTAG | 1.17
GTGTGTCTGATTATTTACATGTGCTAG | 0.221
TTAGGTTACGGTTCCGGTTAGTGCTAG | 1.19
GACGGTATCGGACAGGGGACGTGCTAG | 0.835
GATGGTATCCTTCTCCTGACGTGCTAG | 0.157
GACGGACTGGATACTGGGGACGTGCTA | -0.514
